# Results gathered from unrelated publications.
# Each numbered part is a random draw from the data of one study; scales do not carry over between parts. Changes are numbered by the printed parent chain.

# Block 1 — technique: aptamer microarray, sandwich; form: DNA with 2'F-ANA; medium: in vitro; concentration: 200 nM; with: Cy3 exosite-II aptamer, 400 nM; direction: higher = stronger binding; strand: GGTTGGTGTGGTTGG
# Target: Prothrombin, mature alpha-thrombin (F2, Homo sapiens, UniProt P00734)
# Notes: whole 15-mer aptamer, many near background
Modification,mean fluorescence intensity
2'F-ANA at 1 4 5 6 7 9 10 12,51.4 a.u.
2'F-ANA at 1 2 4 5 7 8 9 10 15,80.1 a.u.
2'F-ANA at 1 2 3 6 14,70.4 a.u.
2'F-ANA at 4 6 7 11 14 15,96 a.u.
2'F-ANA at 1 3 6 7 8 10 11 12,105 a.u.
2'F-ANA at 1 6 7 9 12 13 14,58.1 a.u.
2'F-ANA at 7 9 10 11 13 14,108 a.u.
2'F-ANA at 4 5 7 10 11,45.7 a.u.
2'F-ANA at 1 4 5 7 8 10 11,47.1 a.u.
2'F-ANA at 1 4 5 6 7 9 12 13,73.1 a.u.
2'F-ANA at 1 5 6 9 10 11 14 15,45.9 a.u.
2'F-ANA at 3 4 8 10 12,402 a.u.
2'F-ANA at 1 3 4 6 7 8 9 10,65.8 a.u.
2'F-ANA at 1 2 3 5 6 10 11 12 13 15,80 a.u.
2'F-ANA at 2 4 7 8 9 12,683 a.u.
2'F-ANA at 1 2 4 8 9 10 11 13 15,96.3 a.u.
2'F-ANA at 2 3 5 6 8 9 10 11 12 15,56 a.u.

# Block 2 — target: CCND2, cyclin fold, Cln2 fusion (human); technique: yeast growth competition, sequencing; medium: yeast; notes: weak parent motif; reference: not given; direction: higher = stronger binding
# Starting sequence: CDKN1A docking peptide (human); SKACRRLFGPVDS
Variant,normalised enrichment score
SKACRRLFHPVDS [G9H],0.214
SKACRTLFGPVDS [R6T],0.462
SKACRRLFGPLDS [V11L],0.302
SKACRRRFGPVDS [L7R],0.0438
SKACPRLFGPVDS [R5P],0.0117
SKSCRRLFGPVDS [A3S],0.148
SKACRRLFIPVDS [G9I],0.665
SKACRRLFAPVDS [G9A],0.85
SKACRKLFGPVDS [R6K],0.558
SKACRRQFGPVDS [L7Q],0.0428
SKACRRLQGPVDS [F8Q],0.285
SFACRRLFGPVDS [K2F],0.276
SKHCRRLFGPVDS [A3H],0.0569
SKACRRLFNPVDS [G9N],0.18
SKACRRLFGPKDS [V11K],-0.139
SKACRRLKGPVDS [F8K],-0.0186
SKACRRLNGPVDS [F8N],0.000807
SKACARAFGPVDS [R5A L7A],-0.0404
SKACRRLFVPVDS [G9V],0.411
SKAARRLFGPVDS [C4A],0.333
SKACRRLFGPMDS [V11M],0.245
SKACRRLFGPGDS [V11G],0.54

# Block 3 — technique: RNA Bind-n-Seq; form: RNA; medium: in vitro; concentration: 1 µM; notes: whole 134-nt RNA, ends assumed; with: 150 mM KCl; reference: input library; direction: higher = stronger binding
# Target: Ras GTPase-activating protein-binding protein 1, RRM domain (G3BP1, Homo sapiens, UniProt Q13283)
# Chain of UniProt Q13283 (whole entry, looked up): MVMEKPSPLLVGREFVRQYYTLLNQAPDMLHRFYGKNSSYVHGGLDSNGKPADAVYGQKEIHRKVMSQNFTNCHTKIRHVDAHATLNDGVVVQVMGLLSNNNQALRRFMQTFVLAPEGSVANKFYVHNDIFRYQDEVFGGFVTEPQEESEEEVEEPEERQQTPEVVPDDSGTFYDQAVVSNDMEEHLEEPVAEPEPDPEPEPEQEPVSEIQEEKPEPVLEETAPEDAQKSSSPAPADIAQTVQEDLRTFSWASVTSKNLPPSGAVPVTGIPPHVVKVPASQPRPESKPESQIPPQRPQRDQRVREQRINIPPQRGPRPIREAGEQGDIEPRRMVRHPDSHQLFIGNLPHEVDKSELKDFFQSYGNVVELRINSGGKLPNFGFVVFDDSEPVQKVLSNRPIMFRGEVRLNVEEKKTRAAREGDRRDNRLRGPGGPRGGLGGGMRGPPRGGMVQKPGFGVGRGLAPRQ
Strand,log2 enrichment
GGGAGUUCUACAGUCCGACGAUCUCAAGUCCUGUGCUACACAUCGUAUGUACCGAAUCGGGAGGGAGGGUUUUUGGGAAAGUAUUAUGUUACGCCGUUCGGAUCUGCACUUCCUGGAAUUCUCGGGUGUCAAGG,0.737
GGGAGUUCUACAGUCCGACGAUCUGGCCCUGGUGGCAUGCGGGGAGGAAGACGUGGCCUCAUGGAUCGUGGUGGUCCCGGUGGAAUGUUCAGAGGUGGCCGUGGUGGAGACAGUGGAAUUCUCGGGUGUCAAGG,0.824
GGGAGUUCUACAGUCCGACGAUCCCUGUGCUACACAUCGUAUGUACCGAAUCGGGGAAAGGGGUUUUUGGGGUUUUUUUGGGGAAAGUAUUAUGUUACGCCGUUCGGAUCUGCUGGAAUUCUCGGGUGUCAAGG,0.695
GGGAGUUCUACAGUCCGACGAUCUGGGAGGUGGAUUUUGUUUAUUUUUUUAGCUCAUUUCCAGGGGUGGGAAUUUUUUUUUAAUAUGUGUCAUGAAUAAAGUUGUAUUUGAAAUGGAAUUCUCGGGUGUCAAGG,2.25
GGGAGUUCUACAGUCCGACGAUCGAUUCCCUCCACAUGCUGCACGCGCAUCUCGCCCCCAGGGGCACUGCCUGGAAGAUUCAGGAGCCUGGGCGGCCUUCGCUUACUCUCACCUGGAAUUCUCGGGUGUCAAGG,-0.268
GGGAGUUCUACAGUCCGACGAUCCACAGACAACACGCACCCACACAGACACAGAGGGAAAAGGUUGGGAUGGGGACAGGGUGCACAGCAGGGCGGGGUAGGACCCCAGCCCCUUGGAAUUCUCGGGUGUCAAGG,-0.0801
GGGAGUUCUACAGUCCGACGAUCCUCAAGUCCUGUGCUACACAUCGUAUGUACCGAAUCGGGUGGGAGGGUUUGGGAAAGUAUUAUGUUACGCCGUUCGGAUCUGCACUUCCAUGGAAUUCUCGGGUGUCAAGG,0.922
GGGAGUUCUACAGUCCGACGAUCGUCCUGUGCUACACAUCGUAUGUACCGAAUCGGCCCCCCGGCCCCCCGGCCCCCCGGGGAAAGUAUUAUGUUACGCCGUUCGGAUCUGCAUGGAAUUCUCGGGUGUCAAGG,-0.61
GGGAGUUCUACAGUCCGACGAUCAAGUCCUGUGCUACACAUCGUAUGUACCGAAUCGGGUUUUUGGGUUUGGGAAAGGGAAAGUAUUAUGUUACGCCGUUCGGAUCUGCACUUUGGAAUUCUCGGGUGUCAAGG,0.358

# Block 4 — target: ATF3, bZIP domain (human); technique: DHFR protein complementation; medium: yeast; reference: wild-type JUN-FOS pair; direction: higher = stronger binding
# Notes: single substitutions, most at no-binding floor
# Starting sequence: JUN, bZIP domain (human); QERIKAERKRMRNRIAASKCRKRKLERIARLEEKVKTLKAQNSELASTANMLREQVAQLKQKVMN; partner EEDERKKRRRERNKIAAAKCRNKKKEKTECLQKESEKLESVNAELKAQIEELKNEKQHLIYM
Variant,binding fitness [natural log]
I28Y,-0.15
E32R,-0.151
A29W,-0.278
K39S,-0.289
N42C,-0.636
K34R,0.00687
A49L,-0.0284
S43Q,-0.0132
S43K,0.0519
K36F,-0.3
A46G,-0.46
A46S,-0.115
L38Q,-0.363
Q41D,-0.375
E33H,-0.201
I28H,-0.195
S47L,-0.102
E54R,-0.215
L52E,-0.806

# Block 5 — technique: DHFR PCA, deep sequencing; medium: yeast; with: (+)-ABA 1.4 µM; reference: wild-type fitted maximum; direction: higher = stronger binding
# Target: ABI1, truncated, D143A, DHFR fusion (Arabidopsis thaliana)
# Notes: methotrexate growth selection, single substitutions
# Starting sequence: PYL1, truncated, DHFR fusion (Arabidopsis thaliana); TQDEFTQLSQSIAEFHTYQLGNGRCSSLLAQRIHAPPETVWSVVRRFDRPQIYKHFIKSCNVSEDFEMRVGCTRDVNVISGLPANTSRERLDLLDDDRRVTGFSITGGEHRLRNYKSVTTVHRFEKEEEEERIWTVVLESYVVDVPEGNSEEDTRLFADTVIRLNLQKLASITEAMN; partner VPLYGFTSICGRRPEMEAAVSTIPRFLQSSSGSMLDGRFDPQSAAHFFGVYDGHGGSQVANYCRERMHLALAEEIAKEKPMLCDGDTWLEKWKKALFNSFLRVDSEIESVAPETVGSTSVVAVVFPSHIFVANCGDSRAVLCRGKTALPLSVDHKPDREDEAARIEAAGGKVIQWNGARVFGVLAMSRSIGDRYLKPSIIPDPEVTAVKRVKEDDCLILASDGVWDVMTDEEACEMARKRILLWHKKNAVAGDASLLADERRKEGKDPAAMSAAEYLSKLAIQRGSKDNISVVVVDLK
Variant,relative binding score
A13P,-18.9%
I162E,6.06%
V137P,-1.9%
Q31A,-5.91%
H110D,24.2%
T173G,-2.58%
E127V,55.3%
F157V,10.6%
N22E,69.3%
R132F,48.5%
L166Q,0.606%
M68F,32.3%
A30Y,45.3%
S140K,1.96%
A175R,58.3%
Y18D,-7.35%

# Repeated from above (block 2):
Variant,normalised enrichment score
SKACRRLFAPVDS [G9A],0.85
SKACRKLFGPVDS [R6K],0.558
SKACRRQFGPVDS [L7Q],0.0428
SKACRRLQGPVDS [F8Q],0.285
SFACRRLFGPVDS [K2F],0.276
SKHCRRLFGPVDS [A3H],0.0569
SKACRRLFNPVDS [G9N],0.18
SKACRRLFGPKDS [V11K],-0.139
SKACRRLKGPVDS [F8K],-0.0186
